Published values collected from several papers.
Several values in a cell are separate wells, animals, samples, runs or records. ± gives the spread as reported.
Sctr: Sctr (Rattus norvegicus, UniProt P23811)
Sequence of UniProt P23811 (whole entry, looked up): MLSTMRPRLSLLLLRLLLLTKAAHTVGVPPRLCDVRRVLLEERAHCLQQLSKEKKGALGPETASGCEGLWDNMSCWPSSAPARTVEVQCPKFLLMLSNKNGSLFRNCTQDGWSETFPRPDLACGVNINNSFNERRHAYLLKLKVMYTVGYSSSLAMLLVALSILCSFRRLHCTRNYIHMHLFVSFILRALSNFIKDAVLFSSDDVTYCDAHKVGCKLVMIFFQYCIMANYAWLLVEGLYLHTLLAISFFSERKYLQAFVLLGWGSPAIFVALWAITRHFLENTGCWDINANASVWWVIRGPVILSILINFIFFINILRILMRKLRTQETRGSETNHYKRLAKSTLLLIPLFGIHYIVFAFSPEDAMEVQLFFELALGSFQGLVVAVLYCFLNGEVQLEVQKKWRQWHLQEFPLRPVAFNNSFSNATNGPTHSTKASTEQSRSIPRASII
FFAR2: Free fatty acid receptor 2 (FFAR2, Homo sapiens, UniProt O15552)
Sequence of UniProt O15552 (whole entry, looked up): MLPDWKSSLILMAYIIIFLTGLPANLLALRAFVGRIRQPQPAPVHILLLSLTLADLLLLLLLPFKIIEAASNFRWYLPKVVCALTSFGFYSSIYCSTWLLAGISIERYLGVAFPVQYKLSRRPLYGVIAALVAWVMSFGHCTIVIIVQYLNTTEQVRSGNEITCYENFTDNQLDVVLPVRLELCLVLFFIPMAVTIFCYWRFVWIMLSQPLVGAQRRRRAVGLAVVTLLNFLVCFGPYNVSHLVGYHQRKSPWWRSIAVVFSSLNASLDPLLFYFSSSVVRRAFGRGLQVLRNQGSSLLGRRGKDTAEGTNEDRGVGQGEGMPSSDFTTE
GRPR: Gastrin-releasing peptide receptor (GRPR, Homo sapiens, UniProt P30550)
Sequence of UniProt P30550 (whole entry, looked up): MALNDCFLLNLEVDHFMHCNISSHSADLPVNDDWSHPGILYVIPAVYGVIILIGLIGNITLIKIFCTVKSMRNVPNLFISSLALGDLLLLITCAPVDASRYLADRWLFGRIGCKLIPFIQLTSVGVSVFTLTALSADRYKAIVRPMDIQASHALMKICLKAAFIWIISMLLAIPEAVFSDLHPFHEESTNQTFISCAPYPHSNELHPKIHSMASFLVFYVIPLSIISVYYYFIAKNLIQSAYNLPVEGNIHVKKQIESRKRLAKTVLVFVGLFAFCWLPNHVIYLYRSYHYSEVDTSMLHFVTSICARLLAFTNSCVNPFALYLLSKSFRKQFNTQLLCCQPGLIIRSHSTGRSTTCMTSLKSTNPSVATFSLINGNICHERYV
Sequence of UniProt A7T1N0 (whole entry, looked up): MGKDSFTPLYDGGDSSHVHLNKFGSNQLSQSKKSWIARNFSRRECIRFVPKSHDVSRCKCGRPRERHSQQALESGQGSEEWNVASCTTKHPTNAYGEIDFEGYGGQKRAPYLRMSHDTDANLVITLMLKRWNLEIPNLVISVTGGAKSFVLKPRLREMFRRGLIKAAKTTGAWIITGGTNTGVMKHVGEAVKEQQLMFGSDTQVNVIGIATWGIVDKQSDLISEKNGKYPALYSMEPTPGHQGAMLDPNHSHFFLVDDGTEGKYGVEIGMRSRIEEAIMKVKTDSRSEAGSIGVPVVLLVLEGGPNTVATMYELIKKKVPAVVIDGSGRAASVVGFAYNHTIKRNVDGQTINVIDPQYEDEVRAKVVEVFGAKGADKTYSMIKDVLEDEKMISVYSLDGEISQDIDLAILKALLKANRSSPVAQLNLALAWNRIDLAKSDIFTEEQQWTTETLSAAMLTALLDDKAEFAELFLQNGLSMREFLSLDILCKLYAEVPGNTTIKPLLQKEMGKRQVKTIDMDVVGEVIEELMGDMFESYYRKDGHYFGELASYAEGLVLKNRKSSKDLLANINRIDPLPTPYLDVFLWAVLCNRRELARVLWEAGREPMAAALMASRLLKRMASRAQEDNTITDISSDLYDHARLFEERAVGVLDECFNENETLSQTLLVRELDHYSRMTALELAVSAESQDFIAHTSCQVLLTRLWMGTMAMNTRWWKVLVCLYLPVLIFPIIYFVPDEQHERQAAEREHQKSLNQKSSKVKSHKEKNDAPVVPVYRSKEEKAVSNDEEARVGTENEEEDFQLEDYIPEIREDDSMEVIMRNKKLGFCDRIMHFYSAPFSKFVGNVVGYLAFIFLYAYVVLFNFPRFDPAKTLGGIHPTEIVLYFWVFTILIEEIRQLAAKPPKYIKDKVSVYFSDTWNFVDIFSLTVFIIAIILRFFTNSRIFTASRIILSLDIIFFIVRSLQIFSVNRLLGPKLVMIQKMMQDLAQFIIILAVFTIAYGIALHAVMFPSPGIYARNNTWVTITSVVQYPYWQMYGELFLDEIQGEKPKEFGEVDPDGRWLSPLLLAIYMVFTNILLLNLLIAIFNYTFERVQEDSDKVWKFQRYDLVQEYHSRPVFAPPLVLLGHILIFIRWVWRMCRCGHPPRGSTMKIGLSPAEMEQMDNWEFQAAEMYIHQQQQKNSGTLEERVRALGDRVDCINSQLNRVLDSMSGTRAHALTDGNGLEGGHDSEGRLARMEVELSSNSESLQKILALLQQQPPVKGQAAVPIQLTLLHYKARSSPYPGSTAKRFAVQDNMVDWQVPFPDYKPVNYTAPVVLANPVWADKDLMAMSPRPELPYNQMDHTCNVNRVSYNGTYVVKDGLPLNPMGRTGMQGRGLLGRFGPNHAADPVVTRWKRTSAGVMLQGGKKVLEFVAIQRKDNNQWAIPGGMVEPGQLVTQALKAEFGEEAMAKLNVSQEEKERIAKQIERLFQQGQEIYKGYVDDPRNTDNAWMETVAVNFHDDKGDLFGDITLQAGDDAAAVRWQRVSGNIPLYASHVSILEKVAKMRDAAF
Sequence of UniProt P17302 (whole entry, looked up): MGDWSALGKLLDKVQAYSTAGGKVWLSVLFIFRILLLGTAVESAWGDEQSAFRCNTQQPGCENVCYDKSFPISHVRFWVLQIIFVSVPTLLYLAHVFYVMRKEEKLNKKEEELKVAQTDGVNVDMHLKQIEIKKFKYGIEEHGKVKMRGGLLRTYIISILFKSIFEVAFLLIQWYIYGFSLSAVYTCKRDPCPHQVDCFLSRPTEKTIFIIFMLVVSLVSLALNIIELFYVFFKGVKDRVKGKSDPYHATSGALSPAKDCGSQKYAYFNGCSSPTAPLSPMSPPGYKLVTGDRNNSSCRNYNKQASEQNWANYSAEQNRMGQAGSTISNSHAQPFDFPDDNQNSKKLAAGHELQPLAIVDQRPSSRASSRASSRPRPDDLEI
Sequence of UniProt O95838 (whole entry, looked up): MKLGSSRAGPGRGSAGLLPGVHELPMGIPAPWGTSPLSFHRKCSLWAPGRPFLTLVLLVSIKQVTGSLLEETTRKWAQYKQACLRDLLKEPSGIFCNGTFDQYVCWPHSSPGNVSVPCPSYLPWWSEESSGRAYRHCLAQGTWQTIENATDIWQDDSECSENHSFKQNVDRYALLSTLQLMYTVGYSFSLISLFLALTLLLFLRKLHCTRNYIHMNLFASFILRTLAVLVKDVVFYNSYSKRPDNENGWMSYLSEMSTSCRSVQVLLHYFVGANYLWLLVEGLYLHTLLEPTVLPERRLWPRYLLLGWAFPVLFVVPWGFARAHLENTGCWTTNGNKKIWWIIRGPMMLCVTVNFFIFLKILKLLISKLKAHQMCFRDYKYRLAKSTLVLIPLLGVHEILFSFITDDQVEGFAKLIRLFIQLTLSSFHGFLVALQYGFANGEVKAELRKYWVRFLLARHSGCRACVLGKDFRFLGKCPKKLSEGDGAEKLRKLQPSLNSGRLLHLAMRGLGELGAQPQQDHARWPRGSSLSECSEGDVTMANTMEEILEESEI
Sequence of UniProt P30518 (whole entry, looked up): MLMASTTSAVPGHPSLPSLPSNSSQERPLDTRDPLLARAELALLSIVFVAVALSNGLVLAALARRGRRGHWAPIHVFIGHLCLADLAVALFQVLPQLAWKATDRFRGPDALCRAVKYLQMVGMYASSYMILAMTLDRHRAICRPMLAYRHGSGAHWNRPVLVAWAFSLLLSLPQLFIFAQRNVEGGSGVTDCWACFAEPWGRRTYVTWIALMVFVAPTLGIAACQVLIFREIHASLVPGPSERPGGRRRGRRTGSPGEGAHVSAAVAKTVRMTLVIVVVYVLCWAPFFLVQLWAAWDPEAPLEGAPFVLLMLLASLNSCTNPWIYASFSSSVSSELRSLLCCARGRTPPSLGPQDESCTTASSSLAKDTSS
Sequence of UniProt Q6DWJ6 (whole entry, looked up): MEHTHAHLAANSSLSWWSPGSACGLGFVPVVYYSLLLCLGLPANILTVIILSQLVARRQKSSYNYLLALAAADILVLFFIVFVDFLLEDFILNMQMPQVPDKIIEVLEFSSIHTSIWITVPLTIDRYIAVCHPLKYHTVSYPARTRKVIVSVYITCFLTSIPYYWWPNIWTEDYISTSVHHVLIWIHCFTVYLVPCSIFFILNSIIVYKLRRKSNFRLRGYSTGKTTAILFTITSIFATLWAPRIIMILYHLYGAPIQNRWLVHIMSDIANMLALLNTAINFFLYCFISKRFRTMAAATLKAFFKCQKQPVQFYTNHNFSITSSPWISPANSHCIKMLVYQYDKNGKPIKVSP
Sequence of UniProt P43116 (whole entry, looked up): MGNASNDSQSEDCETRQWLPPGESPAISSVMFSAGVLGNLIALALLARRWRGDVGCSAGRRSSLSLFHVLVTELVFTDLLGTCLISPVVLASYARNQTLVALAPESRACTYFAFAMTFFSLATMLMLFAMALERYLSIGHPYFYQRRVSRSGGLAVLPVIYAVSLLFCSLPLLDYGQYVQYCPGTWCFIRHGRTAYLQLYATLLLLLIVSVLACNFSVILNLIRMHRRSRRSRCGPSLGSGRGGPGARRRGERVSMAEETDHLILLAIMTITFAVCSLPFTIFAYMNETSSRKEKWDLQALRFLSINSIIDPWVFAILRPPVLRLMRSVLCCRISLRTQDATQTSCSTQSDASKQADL

SMILES	target	assay	test system	setting	how to read	EC50
CC(C)C[C@H](NC(=O)CNC(=O)[C@H](CCC(N)=O)NC(=O)[C@H](CC(C)C)NC(=O)[C@H](CC(C)C)NC(=O)[C@H](CCCNC(=N)N)NC(=O)[C@H](CCC(N)=O)NC(=O)[C@H](CC(C)C)NC(=O)[C@H](CCCNC(=N)N)NC(=O)[C@H](C)NC(=O)[C@H](CO)NC(=O)[C@H](CC(=O)O)NC(=O)[C@H](CCC(N)=O)NC(=O)[C@H](CC(C)C)NC(=O)[C@H](CCCNC(=N)N)NC(=O)[C@H](CO)NC(=O)[C@H](C)NC(=O)[C@H](CCC(=O)O)NC(=O)[C@H](CO)NC(=O)[C@@H](NC(=O)[C@H](Cc1ccccc1)NC(=O)[C@@H](NC(=O)CNC(=O)[C@H](CC(=O)O)NC(=O)[C@H](CO)NC(=O)[C@@H](N)Cc1c[nH]cn1)[C@@H](C)O)[C@@H](C)O)C(=O)N[C@H](C(N)=O)C(C)C	Sctr	cAMP production, agonist	CHO-SecR	30 min, 37 °C, added: 1 mM IBMX	–	0.0061 ± 0.0013 µM
CC(C)CC(=O)O	FFAR2	agonist	–	–	–	759 µM
CC[C@H](C)[C@H](NC(=O)[C@H](CCC(=O)O)NC(=O)[C@@H](NC(=O)[C@H](CCC(N)=O)NC(=O)[C@@H](N)CCCCN)[C@@H](C)CC)C(=O)N[C@@H](CCCCN)C(=O)N[C@@H](CCCCN)C(=O)N[C@@H](Cc1ccccc1)C(=O)N[C@@H](CCCCN)C(=O)O	Gap junction alpha-1 protein, C-terminal tail 255-382 (GJA1, Homo sapiens, UniProt P17302)	binding, SPR	–	Cx43 C-terminal tail	–	~2.5 µM
CC(C)C[C@H](NC(=O)CNC(=O)[C@H](CCC(N)=O)NC(=O)[C@H](CC(C)C)NC(=O)[C@H](CC(C)C)NC(=O)[C@H](CCCNC(=N)N)NC(=O)[C@H](CCC(N)=O)NC(=O)[C@H](CC(C)C)NC(=O)[C@H](CCCNC(=N)N)NC(=O)[C@H](C)NC(=O)[C@H](CO)NC(=O)[C@H](CC(=O)O)NC(=O)[C@H](C)NC(=O)[C@H](CC(C)C)NC(=O)[C@H](CCCNC(=N)N)NC(=O)[C@H](CO)NC(=O)[C@H](CC(C)C)NC(=O)[C@H](CCC(=O)O)NC(=O)[C@H](CO)NC(=O)[C@@H](NC(=O)[C@H](Cc1ccccc1)NC(=O)[C@@H](NC(=O)CNC(=O)[C@H](CC(=O)O)NC(=O)[C@H](CO)NC(=O)[C@@H](N)Cc1c[nH]cn1)[C@@H](C)O)[C@@H](C)O)C(=O)N[C@H](C(N)=O)C(C)C	Sctr	cAMP production, agonist	CHO-SecR	30 min, 37 °C, added: 1 mM IBMX	–	0.0002 ± 7e-05 µM
CCCC[C@H](NC(=O)[C@H](Cc1ccccc1)NC(=O)[C@H](Cc1c[nH]cn1)NC(=O)CCNC(=O)[C@@H](NC(=O)[C@H](C)NC(=O)[C@H](Cc1c[nH]c2ccccc12)NC(=O)[C@H](CC(N)=O)NC(=O)[C@H](N)Cc1ccc(O)cc1)C(C)C)C(N)=O	GRPR	inositol phosphate, agonist	–	–	–	0.00069 µM
CC(C)C[C@H](NC(=O)CNC(=O)[C@H](CCC(N)=O)NC(=O)[C@H](CC(C)C)NC(=O)[C@H](CC(C)C)NC(=O)[C@H](CCCNC(=N)N)NC(=O)[C@H](CCC(N)=O)NC(=O)[C@H](CC(C)C)NC(=O)[C@H](CCCNC(=N)N)NC(=O)[C@H](C)NC(=O)[C@H](CO)NC(=O)[C@H](CC(=O)O)NC(=O)[C@H](CCC(N)=O)NC(=O)[C@H](CC(C)C)NC(=O)[C@H](CCCNC(=N)N)NC(=O)[C@H](CO)NC(=O)[C@H](CC(C)C)NC(=O)[C@H](CCC(=O)O)NC(=O)[C@H](CO)NC(=O)[C@@H](NC(=O)[C@H](Cc1ccccc1)NC(=O)[C@@H](NC(=O)CNC(=O)[C@H](CC(=O)O)NC(=O)[C@H](C)NC(=O)[C@@H](N)Cc1c[nH]cn1)[C@@H](C)O)[C@@H](C)O)C(=O)N[C@H](C(N)=O)C(C)C	Sctr	cAMP production, agonist	CHO-SecR	30 min, 37 °C, added: 1 mM IBMX	–	0.0003 ± 0.0001 µM
CCC(CC)N[C@H](Cc1ccccc1)C(=O)N[C@@H](CCC(N)=O)C(=O)N[C@@H](Cc1c[nH]c2ccccc12)C(=O)N[C@@H](C)C(=O)N[C@H](C(=O)N[C@H](C)C(=O)N[C@@H](Cc1c[nH]cn1)C(=O)N[C@@H](CC(C)C)C(=O)N[C@@H](CC(C)C)C(N)=O)C(C)C	GRPR	inositol phosphate formation, agonist	BALB/3T3 transfected with human GRPR	45 min, 37 °C	reference: 1 µM GRP	0.0275 ± 0.0013 µM
O=C(O)CC1CC1	FFAR2	agonist	–	–	–	631 µM
CC(C)[C@H](C(=O)Nc1ncc(F)s1)c1ccc(Cl)cc1	FFAR2	calcium signal, agonist	–	–	–	7.67 µM
Cn1c(=O)n(CCCO)c(=O)c2c1nc(Oc1cccc(C3(C(F)(F)F)N=N3)c1)n2Cc1ccc(Cl)cc1	TRPC5 (Homo sapiens, UniProt Q9UL62)	calcium signal, agonist, fluorescence	–	–	–	0.013 µM
CC(C)(C)C(=O)O	FFAR2	agonist	–	–	–	6610 µM
CC[C@H](C)[C@H](NC(=O)[C@H](Cc1ccccc1)NC(=O)[C@H](CC(=O)O)NC(=O)[C@H](CCCNC(=N)N)NC(=O)[C@H](C)NC(=O)[C@H](C)NC(=O)[C@H](CC(C)C)NC(=O)[C@H](CC(N)=O)NC(=O)[C@H](CC(=O)O)NC(=O)[C@H](CC(C)C)NC(=O)[C@@H](NC(=O)[C@@H](NC(=O)[C@H](CC(N)=O)NC(=O)[C@H](CCSC)NC(=O)[C@H](CCC(=O)O)NC(=O)[C@H](CC(=O)O)NC(=O)[C@H](CO)NC(=O)[C@H](Cc1ccccc1)NC(=O)[C@H](CO)NC(=O)[C@H](C)NC(=O)[C@H](CC(=O)O)NC(=O)[C@H](C)NC(=O)[C@@H](N)Cc1c[nH]cn1)[C@@H](C)O)[C@@H](C)CC)C(=O)N[C@@H](CC(N)=O)C(=O)N[C@@H](Cc1c[nH]c2ccccc12)C(=O)N[C@@H](CC(C)C)C(=O)N[C@H](C(=O)N[C@@H](CCC(N)=O)C(=O)N[C@H](C(=O)N[C@@H](CCCCN)C(=O)N[C@H](C(=O)N[C@H](C(=O)N[C@@H](CC(=O)O)C(N)=O)[C@@H](C)O)[C@@H](C)CC)[C@@H](C)O)[C@@H](C)CC	GLP2R (Homo sapiens, UniProt O95838)	agonist	–	–	–	0.00016 µM
Nc1ncnc2c1ncn2C1OC(COP(=O)(O)OP(=O)(O)OCC2OC(O)C(O)C2O)C(O)C1O (centres unmarked)	TRPM2 (Nematostella vectensis, UniProt A7T1N0)	channel activation, agonist, inside-out patch clamp	Xenopus oocytes	-20 mV, added: 125 µM Ca2+	–	~2.3 µM and 2.3 µM
COc1cc(CNC(=O)CCCC/C=C/C(C)C)ccc1N(S(C)(=O)=O)S(C)(=O)=O	TRPV1 (Homo sapiens, UniProt Q8NER1)	calcium signal, agonist	–	–	–	> 10 µM
COc1ccc(-c2cc(C(F)(F)F)nc(S(=O)(=O)CCCC(=O)Nc3ccc(F)cc3F)n2)cc1OC	AVPR2 (Homo sapiens, UniProt P30518)	cAMP accumulation, positive allosteric modulator	CHO-K1 overexpressing AVPR2	added: vasopressin at EC20	–	19 ± 17 µM
CSCC[C@H](NC(=O)[C@H](CO)NC(=O)[C@H](Cc1ccc(O)cc1)NC(=O)[C@@H](N)CO)C(=O)N[C@@H](CCC(=O)O)C(=O)N[C@@H](Cc1cnc[nH]1)C(=O)N[C@@H](Cc1ccccc1)C(=O)N[C@@H](CCCNC(=N)N)C(=O)N[C@@H](Cc1c[nH]c2ccccc12)C(=O)NCC(=O)N[C@@H](CCCCN)C(=O)N1CCC[C@H]1C(=O)N[C@H](C(=O)NCC(=O)N[C@@H](CCCCN)C(=O)N[C@@H](CCCCN)C(=O)N[C@@H](CCCNC(=N)N)C(=O)N[C@@H](CCCNC(=N)N)C(=O)N1CCC[C@H]1C(=O)N[C@H](C(=O)N[C@@H](CCCCN)C(=O)N[C@H](C(=O)N[C@@H](Cc1ccc(O)cc1)C(=O)N1CCC[C@H]1C(=O)N[C@@H](CC(N)=O)C(=O)NCC(=O)N[C@@H](C)C(=O)N[C@@H](CCC(=O)O)C(=O)N[C@@H](CC(=O)O)C(=O)N[C@@H](CCC(=O)O)C(=O)N[C@@H](CO)C(=O)N[C@@H](C)C(=O)N[C@@H](CCC(=O)O)C(=O)N[C@@H](C)C(=O)N[C@@H](Cc1ccccc1)C(=O)N1CCC[C@H]1C(=O)N[C@@H](CC(C)C)C(=O)N[C@@H](CCC(=O)O)C(=O)N[C@@H](Cc1ccccc1)C(=O)O)C(C)C)C(C)C)C(C)C	GPR139 (Homo sapiens, UniProt Q6DWJ6)	calcium mobilisation, agonist, Fluo-4	CHO transfected	from mean pEC50	–	2.04 µM
CCC(=O)Nc1cccc(CN2C(=O)N(c3c(Cl)c(OC)cc(OC)c3Cl)Cc3cnc(NCCCCN(CC)CC)nc32)c1	FGFR1/Transcription factor ETV6 (Homo sapiens, UniProt P11362+P41212)	cell proliferation, MTT	Ba/F3	48 h	–	0.34 µM
CC[C@H](C)[C@H](NC(=O)CNC(=O)[C@H](CC(=O)O)NC(=O)[C@H](CO)NC(=O)C=Cc1c[nH]cn1)C(=O)N[C@@H](Cc1ccccc1)C(=O)N[C@H](C(=O)N[C@@H](CC(=O)O)C(=O)N[C@@H](CO)C(=O)N[C@@H](Cc1ccc(O)cc1)C(=O)N[C@@H](CO)C(=O)N[C@@H](CCCNC(=N)N)C(=O)N[C@@H](Cc1ccc(O)cc1)C(=O)N[C@@H](CCCNC(=N)N)C(=O)N[C@@H](CCCCN)C(=O)N[C@@H](CCC(N)=O)C(=O)N[C@@H](CCSC)C(=O)N[C@@H](C)C(=O)N[C@H](C(=O)N[C@@H](CCCCN)C(=O)N[C@@H](CCCCN)C(=O)N[C@@H](C)C(=O)N[C@@H](CC(C)C)C(=O)N[C@@H](C)C(=O)N[C@@H](C)C(=O)N[C@H](C(=O)N[C@@H](CC(C)C)C(=O)NCC(=O)N[C@@H](CCCCN)C(=O)N[C@@H](CCCNC(=N)N)C(=O)N[C@@H](Cc1ccc(O)cc1)C(=O)N[C@@H](CCCCN)C(=O)N[C@@H](CCC(N)=O)C(=O)N[C@@H](CCCNC(=N)N)C(=O)N[C@H](C(=O)N[C@@H](CCCCN)C(=O)N[C@@H](CC(N)=O)C(=O)N[C@@H](CCCCN)C(N)=O)C(C)C)C(C)C)C(C)C)[C@@H](C)O	VIPR1 (Homo sapiens, UniProt P32241)	cAMP, agonist, radiometric	–	–	–	0.069 µM
O=C(O)COc1cccc(NC(=O)c2cc(-c3cccc(F)c3)ccc2F)c1	PTGER2 (Homo sapiens, UniProt P43116)	calcium signal, agonist, fluorescence	–	–	–	0.002 µM
CC(C)C[C@H](NC(=O)CNC(=O)[C@H](CCC(N)=O)NC(=O)[C@H](CC(C)C)NC(=O)[C@H](CC(C)C)NC(=O)[C@H](CCCNC(=N)N)NC(=O)[C@H](CCC(N)=O)NC(=O)[C@H](CC(C)C)NC(=O)[C@H](CCCNC(=N)N)NC(=O)[C@H](C)NC(=O)[C@H](CO)NC(=O)[C@H](CC(=O)O)NC(=O)[C@H](CCC(N)=O)NC(=O)[C@H](CC(C)C)NC(=O)[C@H](CCCNC(=N)N)NC(=O)[C@H](CO)NC(=O)[C@H](CC(C)C)NC(=O)[C@H](CCC(=O)O)NC(=O)[C@H](CO)NC(=O)[C@@H](NC(=O)[C@H](Cc1ccccc1)NC(=O)[C@@H](NC(=O)CNC(=O)[C@H](CC(=O)O)NC(=O)[C@H](CO)NC(=O)[C@@H](N)Cc1c[nH]cn1)[C@@H](C)O)[C@@H](C)O)C(=O)N[C@@H](C)C(N)=O	Sctr	cAMP production, agonist	CHO-SecR	30 min, 37 °C, added: 1 mM IBMX	–	0.0005 ± 0.0002 µM

Repeated from above:
SMILES	target	assay	test system	setting	how to read	EC50
CC(C)C[C@H](NC(=O)CNC(=O)[C@H](CCC(N)=O)NC(=O)[C@H](CC(C)C)NC(=O)[C@H](CC(C)C)NC(=O)[C@H](CCCNC(=N)N)NC(=O)[C@H](CCC(N)=O)NC(=O)[C@H](CC(C)C)NC(=O)[C@H](CCCNC(=N)N)NC(=O)[C@H](C)NC(=O)[C@H](CO)NC(=O)[C@H](CC(=O)O)NC(=O)[C@H](CCC(N)=O)NC(=O)[C@H](CC(C)C)NC(=O)[C@H](CCCNC(=N)N)NC(=O)[C@H](CO)NC(=O)[C@H](CC(C)C)NC(=O)[C@H](CCC(=O)O)NC(=O)[C@H](CO)NC(=O)[C@@H](NC(=O)[C@H](Cc1ccccc1)NC(=O)[C@@H](NC(=O)CNC(=O)[C@H](CC(=O)O)NC(=O)[C@H](C)NC(=O)[C@@H](N)Cc1c[nH]cn1)[C@@H](C)O)[C@@H](C)O)C(=O)N[C@H](C(N)=O)C(C)C	Sctr	cAMP production, agonist	CHO-SecR	30 min, 37 °C, added: 1 mM IBMX	–	0.0003 ± 0.0001 µM
CCC(CC)N[C@H](Cc1ccccc1)C(=O)N[C@@H](CCC(N)=O)C(=O)N[C@@H](Cc1c[nH]c2ccccc12)C(=O)N[C@@H](C)C(=O)N[C@H](C(=O)N[C@H](C)C(=O)N[C@@H](Cc1c[nH]cn1)C(=O)N[C@@H](CC(C)C)C(=O)N[C@@H](CC(C)C)C(N)=O)C(C)C	GRPR	inositol phosphate formation, agonist	BALB/3T3 transfected with human GRPR	45 min, 37 °C	reference: 1 µM GRP	0.0275 ± 0.0013 µM
O=C(O)CC1CC1	FFAR2	agonist	–	–	–	631 µM
